Measured values of several laboratories.
KIT D816V: Mast/stem cell growth factor receptor Kit (KIT, Homo sapiens, UniProt P10721, D816V)
KIT: Mast/stem cell growth factor receptor Kit (KIT, Homo sapiens, UniProt P10721)
KIT autoinhibited: Mast/stem cell growth factor receptor Kit, autoinhibited (KIT, Homo sapiens, UniProt P10721)

Compound | target | read-out | method | concentration | baseline | remaining binding [%]
C=CC(=O)N1CCc2ccc(-n3c(=O)ccc4cnc5ccc(-c6cnn(C)c6)cc5c43)cc21 | KIT (Homo sapiens, UniProt P10721, A829P) |  | KINOMEscan | 1 µM | DMSO control | 94
CN1CCN(Cc2ccc(NC(=O)c3cccc(C#Cc4cnc(N)c5ncccc45)c3)cc2C(F)(F)F)CC1 | KIT D816V | cell-free assay | competition with immobilised ligand | 0.5 µM |  | 1.6
Cc1ccc(-c2c(/C=C(\C#N)C(=O)NC(C)C)n(CCCO)c3ncnc(N)c23)cc1 | KIT D816V | cell-free assay | competition with immobilised ligand | 1 µM |  | 98
CNC(=O)C1CCN(c2cc(C)c(F)cc2NC(=O)c2ccc(-c3cc(O)ccc3C)c(C)c2)CC1 | KIT | binding | competition with immobilised ligand | 1 µM |  | 90
COc1c(Cl)cccc1Nc1c(-c2ccncc2C#C[C@@]2(C)CCCN2C(=O)/C=C/CN(C)C)[nH]c2c1C(=O)NCC2 | KIT autoinhibited | binding | competition with immobilised ligand | 3 µM |  | 93
CNC1C[S+]2CC[S+]3CC[S+](C1)[Ru-4]321([N]=C=S)[n]2c3ccc(OC)cc3c3c4c(c5cc(F)c[n+]1c5c32)C(=O)NC4=O (stereo not drawn) | KIT |  | KinomeScan | 0.1 µM | untreated | 62
CC(C)=CC1OC(C)(C)C2C=C3C(=O)C(Cl)=CC(O)C3C3C(O)C4OC4C(=O)C132 (stereo not drawn) | KIT (Homo sapiens, UniProt P10721, V559D) | cell-free assay | competition with immobilised ligand | 10 µM |  | 100
Cc1cnc2nc1Nc1cccc(c1)COC/C=C/COCc1cc(ccc1OCCN1CCOCC1)N2 | KIT (Homo sapiens, UniProt P10721, L576P) | binding |  | 0.1 µM |  | 11
CCN1CCN(Cc2ccc(NC(=O)c3ccc(C)c(NC(=O)c4cncc(-c5cccs5)c4)c3)cc2C(F)(F)F)CC1 | KIT | binding | competition with immobilised ligand | 1 µM |  | 0
CCN1CCN(Cc2ccc(C(=O)Nc3ccc(C)c(NCc4cnc5[nH]ccc5c4OC)c3)cc2C(F)(F)F)CC1 | KIT (Homo sapiens, UniProt P10721, V559D/V654A) | binding | competition with immobilised ligand | 1 µM |  | 24
Nc1ncc2c(n1)-c1c([nH]c3ccc(C4=CCOCC4)cc13)CCC2 | KIT autoinhibited | binding | competition with immobilised ligand | 1 µM |  | 100
C=CC(=O)N1CCCC(n2c(=O)c3ncccc3n(Cc3ccc(Oc4ccccc4)cc3)c2=O)C1 (stereo not drawn) | KIT (Homo sapiens, UniProt P10721, T670I/V559D) | cell-free assay | competition with immobilised ligand | 1 µM |  | 93
